Measured values from different studies.
Each numbered part is a random draw from the data of one study; scales do not carry over between parts. Positions count from the first letter of the parent shown.

Set 1
Target: CCNE1, cyclin fold, Cln2 fusion (human)
Method: yeast growth competition, sequencing
Sample: yeast
Setting: weak parent motif
Reference: not given
Direction: higher = stronger binding
Parent: MICAL3 docking peptide (human); LQLRRQLSFSEDS
`LQLRRQLSFSSDS [E11S]` — result for “normalised enrichment score”: 1.17.
`LQLRRRLSFSEDS [Q6R]`: “normalised enrichment score” 3.16.
For `LQLRRQLSNSEDS [F9N]`, “normalised enrichment score” read -0.0453.
Under “normalised enrichment score”, `LQLRRQLSFYEDS [S10Y]` is recorded as 0.496.
For `LQQRRQLSFSEDS [L3Q]`, “normalised enrichment score” read 0.0512.
For `LQLLRQLSFSEDS [R4L]`, “normalised enrichment score” read 0.259.
`LQLRRQLSASEDS [F9A]`: “normalised enrichment score” 0.0619.
`LQLMRQLSFSEDS [R4M]` — result for “normalised enrichment score”: 0.0347.
For `LQLRRQLSFDEDS [S10D]`, “normalised enrichment score” read 1.13.

Set 2
Target: Histone acetyltransferase KAT6A, winged helix 1, GST fusion (KAT6A, Homo sapiens, UniProt Q92794, residues 1-85)
Method: protein binding microarray
Form: double-stranded DNA, one strand shown
Sample: in vitro
Tested at: not given
Setting: 8-mer, flanks averaged, mean of 2 arrays, mostly near background
Reference: not given
Direction: higher = stronger binding
Target sequence (chain): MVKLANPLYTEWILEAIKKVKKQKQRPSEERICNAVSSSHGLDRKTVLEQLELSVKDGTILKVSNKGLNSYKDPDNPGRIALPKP
The E-score of `CGCATTTC` is reported as 0.146.
For `GCGGAAGA`, the E-score was 0.191.
With `CCCATCAA` the E-score was -0.181.
For `ACGGCGTC`, the E-score was 0.409.
For `AATGGAGC`, the E-score was -0.172.
`ATGCACTG` gave an E-score of -0.328.
`GCTTTTCC` has an E-score of 0.088.
For `CCCTCTGC`, the E-score was -0.123.
`CATTGGCC` has an E-score of -0.135.
With `CACAAGGA` the E-score was -0.188.
`GCGTCGAC` gave an E-score of 0.138.

Set 3
Target: Sal-like protein 4, full length isoform A (SALL4, Homo sapiens, UniProt Q9UJQ4, residues 1-1053)
Sequence of UniProt Q9UJQ4 (whole entry, looked up): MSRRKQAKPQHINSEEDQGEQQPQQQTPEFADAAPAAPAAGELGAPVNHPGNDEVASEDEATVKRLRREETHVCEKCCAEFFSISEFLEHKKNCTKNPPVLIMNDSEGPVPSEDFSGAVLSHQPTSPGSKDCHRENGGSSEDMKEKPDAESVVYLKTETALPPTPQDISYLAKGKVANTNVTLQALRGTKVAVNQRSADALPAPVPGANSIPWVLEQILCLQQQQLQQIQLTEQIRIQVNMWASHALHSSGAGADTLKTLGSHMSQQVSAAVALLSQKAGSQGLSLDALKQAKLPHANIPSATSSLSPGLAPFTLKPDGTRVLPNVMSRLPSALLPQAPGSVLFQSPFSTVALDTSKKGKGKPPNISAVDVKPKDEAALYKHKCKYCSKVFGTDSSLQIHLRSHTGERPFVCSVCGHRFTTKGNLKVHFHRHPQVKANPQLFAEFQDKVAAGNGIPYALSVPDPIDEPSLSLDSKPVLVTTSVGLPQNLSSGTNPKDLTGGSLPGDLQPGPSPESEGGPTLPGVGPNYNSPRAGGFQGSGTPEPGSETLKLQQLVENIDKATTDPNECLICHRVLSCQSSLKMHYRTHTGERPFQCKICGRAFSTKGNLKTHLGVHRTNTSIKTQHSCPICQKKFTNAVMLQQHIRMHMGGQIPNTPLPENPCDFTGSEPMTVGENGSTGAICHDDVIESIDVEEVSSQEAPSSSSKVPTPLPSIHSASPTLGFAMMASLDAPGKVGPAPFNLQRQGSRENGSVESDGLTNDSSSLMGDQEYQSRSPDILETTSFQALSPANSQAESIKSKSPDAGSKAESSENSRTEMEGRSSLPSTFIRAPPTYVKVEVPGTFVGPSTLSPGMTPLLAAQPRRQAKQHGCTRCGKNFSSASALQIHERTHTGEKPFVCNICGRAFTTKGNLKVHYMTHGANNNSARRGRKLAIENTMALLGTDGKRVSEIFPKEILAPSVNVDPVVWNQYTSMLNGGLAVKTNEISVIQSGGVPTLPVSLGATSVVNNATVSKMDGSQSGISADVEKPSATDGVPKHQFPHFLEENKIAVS
Method: universal PBM
Form: double-stranded DNA, one strand shown
Sample: in vitro
Tested at: 600 nM
Setting: 8-mer, flanks averaged, mean of replicates
Direction: higher = stronger binding
With `GGAAAGCC` the E-score was -0.251.
`TGCTTCCA` gave an E-score of -0.0394.
The E-score of `AAATGGAA` is reported as 0.195.
The E-score of `CCTTGTCC` is reported as -0.159.
With `ACTTGTTG` the E-score was -0.05.
`AGGATCTA` gave an E-score of -0.0662.
`CGTGCTGA` gave an E-score of -0.0133.
For `AAGCAGGC`, the E-score was -0.227.
With `CAGGCCCA` the E-score was -0.318.
The E-score of `CCATCAGA` is reported as -0.0268.
The E-score of `CCAGCGGA` is reported as -0.359.

Mixed results
`PhoQ, residues 284 288 289 292 302 303 SSTLSG` has a fold induction of 5.26 (PhoP, residues 12 14 15 18 19 QQAYL (Escherichia coli, UniProt P23836); Sort-seq, refers to: YFP reporter; E. coli; PhoQ-PhoP variant library, with: 10 µM Mg2+; reference: high Mg2+ state, higher = stronger signaling).

A few entries again (set 1):
`LQLRRQLSFSSDS [E11S]` — result for “normalised enrichment score”: 1.17.
`LQLRRRLSFSEDS [Q6R]`: “normalised enrichment score” 3.16.
For `LQLRRQLSNSEDS [F9N]`, “normalised enrichment score” read -0.0453.
Under “normalised enrichment score”, `LQLRRQLSFYEDS [S10Y]` is recorded as 0.496.
For `LQQRRQLSFSEDS [L3Q]`, “normalised enrichment score” read 0.0512.
